# Assay results of several laboratories.
# Each line is one published result; not all experiments were run side by side. Several values in a cell are separate wells, animals, samples, runs or records. Numbers after ± are the reported error.
SMILES,target or system,assay,test system,setting,scale,measurement,value
CC[C@H]1CC[C@H]2[C@@H]3C[C@@H](O)[C@@]4(O)C[C@H](N)CC[C@]4(C)[C@H]3CC[C@]12C,HMC3,"nuclear intensity, high-content imaging",,geometric mean,,IC50,1.04 µM
N#Cc1c(N)nc2c(c1-c1ccc[nH]1)Cc1cc(O)ccc1-2,HBP-ALL,"cell viability, CellTiter-Glo",,,no inhibition at 100 µM,IC50,12 µM
CC(=O)NCCOCCOCCNC(=O)c1cc(C(=O)N2CCNCCNCCNCC2)c(O)c(C(=O)N2CCNCCNCCNCC2)c1,PK-59,"cell growth or viability, MTT",,24 h,,IC50,> 1000 µM
NC(=O)c1ccc(-c2ccccc2Cl)c2c3c([nH]c12)CC[C@@H](N)C3,BGC-823,cell growth or viability,,,,IC50,0.0285 µM
COc1c(C)c(OCc2ccccc2)c(C)c(OCc2ccccc2)c1C(=O)/C=C/c1ccccc1,FaDu,"cell growth or viability, SRB",,72 h,,IC50,> 50 µM
C=C1C(=O)OC2C1CCC(C)(O)C13C=CC(C)(C21)C1(C3)C(=O)OC2C3C(C)=CC(=O)C3=C(C)CCC21 (stereo not shown),AML12,"lipid accumulation, Nile Red staining",,added: palmitate/oleate,,IC50,7.12 ± 0.73 µM
CC(C)c1ccc(N(C)c2ccc3c(c2)OCC[C@H]3CNc2cnccc2C(=O)O)cc1,NCI-H2291,"cell growth or viability, ATP luminescence",,7 days,,IC50,0.0084 µM
O=C(CCNc1cccc2c1C(=O)N(C1CCC(=O)NC1=O)C2=O)NCCOCCOCCOCCN1CCC(CNC(=O)c2cccc(-c3noc(C(F)(F)F)n3)c2)(c2nc(-c3ccccc3)cs2)CC1 (stereo not shown),JeKo-1,cell growth or viability,,7 days,,IC50,2.27 µM
CCOc1cncc(-c2ccc(NC(=O)C3(c4ccnc(NS(=O)(=O)C5CC5)n4)CCOCC3)nc2)n1,lung cancer,"cell viability, CellTiter-Glo",DMSO 0.1%,"72 h, line code 66",,IC50,0.044 µM
CCCC[C@H](NC(C)=O)C(=O)N[C@@H](CO)C(=O)N[C@H](C(=O)N1CCC[C@H]1C(=O)N[C@]1(C)CCCCCCC=CCCC[C@@](C)(C(=O)N[C@@H](Cc2ccccc2)C(=O)N[C@@H](CCCCN)C(=O)N[C@@H](CCCNC(=N)N)C(=O)N[C@@H](CC(C)C)C(=O)N[C@@H](CCC(N)=O)C(N)=O)NC(=O)[C@H](CCCNC(=N)N)NC(=O)[C@H](CCCC)NC(=O)[C@H](CC(C)C)NC(=O)[C@H](CCCNC(=N)N)NC(=O)[C@H](CCCNC(=N)N)NC(=O)[C@H](CCCNC(=N)N)NC1=O)[C@@H](C)O,proteinase K (Tritirachium album),"proteolytic stability, LC-MS",,"25 µM, 246.0 min, pH 7.4",,remaining intact peptide,68.4% and 62.5%
Nc1ncc(-c2cc(-c3cnn(CC(F)(F)F)c3)ncc2F)nc1C(=O)NC1CNCC(F)C1 (stereo not shown),ERK3,KINOMEscan,,1 µM,baseline: DMSO control,remaining binding,82%
C=CC(=O)Nc1cccc(Cn2ncc3cnc(Nc4cnn(CCOC)c4)nc32)c1,human TRKC,KINOMEscan,,100 nM,baseline: control,binding,70%
COC(=O)C1=C(C)Oc2ccc(Br)cc2C1C(C(C)=O)C(=O)OC (stereo not shown),3T3-L1,"cell growth or viability, MTT",,72 h,,IC50,> 100 µg/mL
CNS(=O)(=O)Nc1nccc(Cc2c(C)c3ccc(Oc4ncccc4F)cc3oc2=O)c1F,WM 266-4,"cell viability, inhibitor, CellTiter-Glo",,7 days,,IC50,0.00368 µM
Cc1ncsc1-c1ccc(C(C)NC(=O)C2CC(O)CN2C(=O)C(NC(=O)CCCCCCCCCCN2CCCC(Nc3ncc(Cl)c(Nc4ccccc4S(=O)(=O)C(C)C)n3)C2)C(C)(C)C)cc1 (stereo not shown),22Rv1,"RNA-seq, refers to: LIFR-AS1",,concentration not given,baseline: DMSO,log2 fold change,-2.05
CN1CCCNC(=O)c2cccc(c2)C(=O)NCCCN(C)CCCNc2cccc3c2C(=O)c2cccc(c2C3=O)NCCC1,SAS,"RNA-Seq, refers to: MRPL2 mRNA",,"1 µM, 6 h",baseline: untreated cells,log2 fold change,0.418
O=C(OCc1ccc(O[C@@H]2O[C@H](COC(=O)c3ccc(O)cc3)[C@@H](O)[C@H](O)[C@H]2O)cc1)c1ccc(O)cc1,T47D breast cancer,"cell viability, MTT",DMEM with 10% FBS,48 h,,IC50,> 200 µM
COC1CN([C@H]2CC[C@H]([C@@]3(C)Oc4c(Cl)cc(C(=O)NCc5c(SC)cc(C)[nH]c5=O)c(C)c4O3)CC2)C1,,"RNA-seq, refers to: RAP1GAP","human, whole blood","dose not given, 24 h",baseline: pretreatment baseline,log2 fold change,2.68
CCCCCCCCCCCCSCC(COCC(O)C[N+](C)(C)C)SCCCCCCCCCCCC (stereo not shown),BHK-21,"cell growth or viability, MTT",,,,IC50,110 µM

# For quick reference, copied from above:
SMILES,target or system,assay,test system,setting,scale,measurement,value
CCOc1cncc(-c2ccc(NC(=O)C3(c4ccnc(NS(=O)(=O)C5CC5)n4)CCOCC3)nc2)n1,lung cancer,"cell viability, CellTiter-Glo",DMSO 0.1%,"72 h, line code 66",,IC50,0.044 µM
CCCC[C@H](NC(C)=O)C(=O)N[C@@H](CO)C(=O)N[C@H](C(=O)N1CCC[C@H]1C(=O)N[C@]1(C)CCCCCCC=CCCC[C@@](C)(C(=O)N[C@@H](Cc2ccccc2)C(=O)N[C@@H](CCCCN)C(=O)N[C@@H](CCCNC(=N)N)C(=O)N[C@@H](CC(C)C)C(=O)N[C@@H](CCC(N)=O)C(N)=O)NC(=O)[C@H](CCCNC(=N)N)NC(=O)[C@H](CCCC)NC(=O)[C@H](CC(C)C)NC(=O)[C@H](CCCNC(=N)N)NC(=O)[C@H](CCCNC(=N)N)NC(=O)[C@H](CCCNC(=N)N)NC1=O)[C@@H](C)O,proteinase K (Tritirachium album),"proteolytic stability, LC-MS",,"25 µM, 246.0 min, pH 7.4",,remaining intact peptide,68.4% and 62.5%
